Measured values from different studies.
Lines come from different studies, so protocols differ. ± gives the spread as reported. ≈ marks a conversion by molar mass, not a printed value.
Chain of UniProt P06213 (whole entry, looked up): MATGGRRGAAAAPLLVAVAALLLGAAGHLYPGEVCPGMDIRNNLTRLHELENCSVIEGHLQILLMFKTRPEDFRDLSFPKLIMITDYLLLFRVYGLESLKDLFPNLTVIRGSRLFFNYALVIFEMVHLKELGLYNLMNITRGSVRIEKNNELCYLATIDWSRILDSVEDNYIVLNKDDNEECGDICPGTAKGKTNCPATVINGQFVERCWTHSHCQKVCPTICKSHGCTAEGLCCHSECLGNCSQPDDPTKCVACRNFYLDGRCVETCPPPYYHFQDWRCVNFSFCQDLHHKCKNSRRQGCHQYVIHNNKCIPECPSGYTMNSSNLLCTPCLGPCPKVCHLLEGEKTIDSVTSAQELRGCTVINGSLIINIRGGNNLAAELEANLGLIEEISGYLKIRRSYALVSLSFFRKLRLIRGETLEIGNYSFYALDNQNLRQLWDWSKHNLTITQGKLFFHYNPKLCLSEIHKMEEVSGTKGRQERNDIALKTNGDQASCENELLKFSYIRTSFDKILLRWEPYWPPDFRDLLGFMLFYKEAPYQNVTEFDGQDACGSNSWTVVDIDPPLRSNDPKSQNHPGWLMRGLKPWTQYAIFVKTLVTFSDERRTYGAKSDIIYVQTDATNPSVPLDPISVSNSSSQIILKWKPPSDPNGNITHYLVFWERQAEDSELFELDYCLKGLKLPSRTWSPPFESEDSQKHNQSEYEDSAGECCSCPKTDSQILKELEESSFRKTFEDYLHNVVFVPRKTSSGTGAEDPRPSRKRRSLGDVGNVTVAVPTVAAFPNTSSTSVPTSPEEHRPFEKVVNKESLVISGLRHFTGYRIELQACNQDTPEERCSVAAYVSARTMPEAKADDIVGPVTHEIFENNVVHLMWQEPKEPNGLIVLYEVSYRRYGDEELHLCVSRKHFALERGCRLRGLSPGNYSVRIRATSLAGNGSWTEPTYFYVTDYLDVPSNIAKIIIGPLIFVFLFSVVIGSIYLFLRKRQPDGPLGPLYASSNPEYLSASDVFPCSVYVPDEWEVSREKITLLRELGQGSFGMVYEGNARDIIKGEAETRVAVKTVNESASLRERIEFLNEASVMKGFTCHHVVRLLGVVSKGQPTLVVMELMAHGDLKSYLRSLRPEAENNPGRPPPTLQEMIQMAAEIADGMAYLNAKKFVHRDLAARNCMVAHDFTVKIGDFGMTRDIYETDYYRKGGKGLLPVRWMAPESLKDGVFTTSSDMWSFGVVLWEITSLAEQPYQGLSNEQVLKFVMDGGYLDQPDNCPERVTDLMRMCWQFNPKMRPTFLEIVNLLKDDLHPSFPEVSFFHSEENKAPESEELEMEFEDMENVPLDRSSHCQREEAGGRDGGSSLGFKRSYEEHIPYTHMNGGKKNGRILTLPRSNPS

O=C(Nc1cc(-c2ccc(Cl)cc2)[nH]n1)C1CCCCC1
remaining activity (Insulin receptor (INSR, Homo sapiens, UniProt P06213); enzyme activity, Dundee kinase panel; 10 µM): 86%

COc1ccc(N=Nc2c(N)nn3c(-c4ccco4)cc(-c4ccc(OCc5ccccc5)cc4)nc23)cc1
MIC (Escherichia coli; ATCC 25955): 31.3 µg/mL (≈ 60.6 µM)

COc1cc(-c2nc3ccccc3c(=O)n2Nc2ccc([N+](=O)[O-])cc2[N+](=O)[O-])ccc1OCc1cn(CC(=O)Nc2cccc(C)c2C)nn1
IC50 (mushroom tyrosinase; inhibitor, colorimetric; together with: L-DOPA substrate): 34.3 ± 2.79 µM

COc1cc(/C=N/NC(=S)NN=Cc2ccc([N+](=O)[O-])o2)ccc1Oc1ccnc2cc(Cl)ccc12
Km (Aldo-keto reductase family 1 member B1 (AKR1B1, Homo sapiens, UniProt P15121); Lineweaver-Burk kinetics; 1.65 µg (IC20)): 4.02 mM

COc1cccc(NC(=O)Cn2cc(COc3ccc(-c4nc5ccccc5c(=O)n4Nc4ccc([N+](=O)[O-])cc4[N+](=O)[O-])cc3OC)nn2)c1
inhibition (mushroom tyrosinase; enzyme activity; 40 µM, together with: L-DOPA): 21.1 ± 5.43%

Nc1nn2c(-c3ccc(Cl)cc3Cl)cc(-c3ccc(OCc4ccccc4)cc3)nc2c1N=Nc1ccc(F)cc1
MIC (Escherichia coli; ATCC 25955): 7.81 µg/mL (≈ 13.4 µM)

COc1cc(/C=N/NC(=S)N/N=C/c2ccc(Cl)cc2)ccc1Oc1ccnc2cc(Cl)ccc12
IC50 (human lysosomal acid alpha-glucosidase; inhibitor; together with: pNPG substrate): 10.8 ± 0.74 µg/mL

O=C(NCc1ccccc1)c1cn(Cc2ccc(C(F)(F)F)cc2)c2ccc(Oc3ccccc3)cc2c1=O
CC50 (T47D; 72 h, 10% FBS): 77 ± 12.2 µM

For quick reference, copied from above:
COc1cc(/C=N/NC(=S)N/N=C/c2ccc(Cl)cc2)ccc1Oc1ccnc2cc(Cl)ccc12
IC50 (human lysosomal acid alpha-glucosidase; inhibitor; together with: pNPG substrate): 10.8 ± 0.74 µg/mL
